{"data": "Assay results from different studies", "note": "Protocols differ between the studies behind these lines. Values joined by “and” are separate records of one study, mostly repeats; a detail may differ. ± marks the error that the study gave.", "sequence of UniProt Q9H3G5 (whole entry, looked up)": "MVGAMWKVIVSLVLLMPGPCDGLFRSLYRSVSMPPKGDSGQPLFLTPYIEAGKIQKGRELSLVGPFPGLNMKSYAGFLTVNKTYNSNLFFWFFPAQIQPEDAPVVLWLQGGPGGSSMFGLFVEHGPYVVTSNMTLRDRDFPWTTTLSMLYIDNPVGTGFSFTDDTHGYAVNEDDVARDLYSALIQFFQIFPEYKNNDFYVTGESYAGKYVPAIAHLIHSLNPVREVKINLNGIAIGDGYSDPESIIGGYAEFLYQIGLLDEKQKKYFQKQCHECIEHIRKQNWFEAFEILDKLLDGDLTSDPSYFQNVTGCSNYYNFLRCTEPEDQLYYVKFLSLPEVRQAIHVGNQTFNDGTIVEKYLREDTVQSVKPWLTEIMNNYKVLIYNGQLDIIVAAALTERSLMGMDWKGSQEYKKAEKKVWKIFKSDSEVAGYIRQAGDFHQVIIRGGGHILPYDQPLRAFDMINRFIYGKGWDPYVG", "sequence of UniProt P11509 (whole entry, looked up)": "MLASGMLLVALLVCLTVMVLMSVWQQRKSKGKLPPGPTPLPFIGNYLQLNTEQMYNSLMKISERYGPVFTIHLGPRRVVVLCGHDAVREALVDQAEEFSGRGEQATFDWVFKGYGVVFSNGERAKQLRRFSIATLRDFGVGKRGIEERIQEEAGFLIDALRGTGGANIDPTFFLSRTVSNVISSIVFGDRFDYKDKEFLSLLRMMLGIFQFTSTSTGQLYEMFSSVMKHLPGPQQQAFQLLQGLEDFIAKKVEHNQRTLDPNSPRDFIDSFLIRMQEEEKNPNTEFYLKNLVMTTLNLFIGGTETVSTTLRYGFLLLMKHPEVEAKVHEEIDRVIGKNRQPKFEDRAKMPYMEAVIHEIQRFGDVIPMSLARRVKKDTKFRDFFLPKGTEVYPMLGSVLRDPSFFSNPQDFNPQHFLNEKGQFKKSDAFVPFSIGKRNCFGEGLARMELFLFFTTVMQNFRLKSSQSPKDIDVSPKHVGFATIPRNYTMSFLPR", "sequence of UniProt Q9HC35 (whole entry, looked up)": "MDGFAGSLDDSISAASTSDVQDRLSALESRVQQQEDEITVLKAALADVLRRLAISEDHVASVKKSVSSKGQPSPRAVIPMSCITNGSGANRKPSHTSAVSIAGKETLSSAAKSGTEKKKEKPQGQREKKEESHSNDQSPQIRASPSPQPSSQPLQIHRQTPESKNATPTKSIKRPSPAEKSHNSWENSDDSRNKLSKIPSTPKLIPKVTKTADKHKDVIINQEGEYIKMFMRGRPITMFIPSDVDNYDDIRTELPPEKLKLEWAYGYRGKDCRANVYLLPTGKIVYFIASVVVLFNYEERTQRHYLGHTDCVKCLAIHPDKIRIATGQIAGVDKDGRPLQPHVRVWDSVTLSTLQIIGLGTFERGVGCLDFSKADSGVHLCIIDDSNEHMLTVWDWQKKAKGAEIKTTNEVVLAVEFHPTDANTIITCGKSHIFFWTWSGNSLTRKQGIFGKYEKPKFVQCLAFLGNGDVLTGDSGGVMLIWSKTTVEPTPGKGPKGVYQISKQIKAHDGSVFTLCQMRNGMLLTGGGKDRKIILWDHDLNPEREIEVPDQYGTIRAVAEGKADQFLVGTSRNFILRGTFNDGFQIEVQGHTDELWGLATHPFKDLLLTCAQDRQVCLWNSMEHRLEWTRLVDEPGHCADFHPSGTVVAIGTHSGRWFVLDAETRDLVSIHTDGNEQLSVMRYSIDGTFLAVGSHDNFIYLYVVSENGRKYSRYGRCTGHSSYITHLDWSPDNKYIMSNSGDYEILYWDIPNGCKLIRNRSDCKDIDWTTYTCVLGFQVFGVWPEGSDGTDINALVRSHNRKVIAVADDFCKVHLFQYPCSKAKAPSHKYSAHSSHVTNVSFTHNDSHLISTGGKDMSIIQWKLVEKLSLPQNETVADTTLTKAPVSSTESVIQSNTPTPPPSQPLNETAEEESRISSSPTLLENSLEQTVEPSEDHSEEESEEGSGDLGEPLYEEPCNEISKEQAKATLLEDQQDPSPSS"}
{"Compound": "COc1cc2c(Oc3ccc4[nH]c(C)cc4c3F)ccnc2cc1OCC1(N)CC1", "system": "paediatric recurrent refractory sarcoma", "setting": "8 mg", "endpoint": "grade 3 influenza-like symptoms", "result": "0%"}
{"Compound": "CC(C)C[C@@H]1NC(=O)[C@H](CC(C)C)NC(=O)[C@H](Cc2c[nH]c3ccccc23)NC(=O)[C@H](CO)NC(=O)[C@H](Cc2c[nH]c3ccccc23)NC(=O)[C@@H]2CCCN2C(=O)[C@H](CC(C)C)NC(=O)[C@H](Cc2c[nH]cn2)NC(=O)[C@@H]2CCCN2C(=O)[C@H](CC(N)=O)NC(=O)[C@H](C)NC(=O)[C@H](Cc2ccc(O)cc2)NC(=O)[C@H](CS)NC(=O)[C@H](CCCCNC(=O)CN2CCN(CC(=O)O)CCN(CC(=O)O)CCN(CC(=O)O)CC2)NC1=O [lutetium-177 labelled]", "system": "female BALB/c mice, 4T1 tumour, tumour", "setting": "intravenous, 4 h, blocking study", "endpoint": "tumour uptake", "result": "4.87 ± 1.01 %ID"}
{"Compound": "CC[C@H](C)[C@@H]1NC(=O)[C@@H]2CCCN2C(=O)[C@H](CC(C)C)NC(=O)[C@H](CC(C)C)NC(=O)CNC(=O)[C@@H](NC(=O)[C@@H](NC(=O)[C@H](CC(=O)O)NC(=O)CNC(=O)[C@@H](NC(=O)[C@H](C)NC(=O)CNC(=O)[C@H](CCCCN)NC(=O)[C@H](CC(C)C)NC(=O)[C@H](CC(C)C)NC(=O)[C@H](CCCCN)NC(=O)CNC(=O)[C@@H](NC(=O)[C@@H](N)CC(C)C)C(C)C)C(C)C)C(C)C)CSSC[C@@H](C(=O)O)NC1=O", "test": "RNA-seq, refers to: Cd3d", "system": "mouse, traumatic brain injury model, frontal cortex and hippocampus", "setting": "dose not given", "scale": "baseline: TBI alone", "endpoint": "log2 fold change", "result": -2.9}
{"Compound": "COc1ccc2c3c1O[C@H]1[C@@H](O)C=C[C@H]4[C@@H](C2)N(C)CC[C@@]341", "test": "PAMPA-BBB", "system": "porcine brain lipid", "setting": "500 µM, 4 h, pH 7.4, 1% DMSO", "endpoint": "Papp", "result": "15.2 ×10⁻⁶ cm/s"}
{"Compound": "CC(C)CC(=O)OC[C@H]1O[C@@](C#N)(c2ccc3c(N)ncnn23)[C@H](O)[C@@H]1O", "target or system": "Cytochrome P450 2A6 (CYP2A6, Homo sapiens, UniProt P11509)", "test": "metabolic stability", "system": "recombinant enzyme", "setting": "1 µM, 30 min", "endpoint": "remaining compound", "result": "99.4 ± 1.25%"}
{"Compound": "CC(=O)O[C@H]1C=C[C@H]2[C@H]3Cc4ccc(O)c5c4[C@@]2(CCN3C)[C@H]1O5", "system": "rat, whole blood", "setting": "10 nM, 4 freeze-thaw cycles", "endpoint": "stability bias", "result": "3.83%"}
{"Compound": "C#Cc1ccc2c(c1)C(c1ccccn1)=NCc1c(-c3cnco3)ncn1-2.Cl", "test": "thermodynamic equilibrium, UV", "system": "ethanol", "setting": "24 h, 25 °C", "endpoint": "solubility", "result": "4340 µg/mL"}
{"Compound": "CCCCCCC(C)(C)c1ccc([C@@H]2C[C@H](O)CC[C@H]2CCCO)c(O)c1", "system": "mouse", "setting": "intraperitoneal, 0.3 mg/kg", "scale": "direction not given", "endpoint": "conditioned place preference score", "result": "-112 and -28.7 and -212 and -27.7 and -57.9 and -238 and -37.5 and -4.25"}
{"Compound": "COc1cc(Nc2ncc(F)c(Nc3ccc4c(n3)NC(=O)C(C)(C)O4)n2)cc(OC)c1OC", "target or system": "Ca2+-ATPase", "test": "enzyme activity, inhibitor", "system": "pig skeletal muscle", "endpoint": "IC50", "result": "> 10 µM"}
{"Compound": "CCC(=O)c1ccccc1", "setting": "pH 7.4", "endpoint": "logD (chromatographic)", "result": 4.52}
{"Compound": "C[C@H]1CN(C(=O)CC#N)[C@]12CCN(c1ncnc3[nH]ccc13)C2", "system": "human", "setting": "oral, dose not given, all compound groups", "endpoint": "participants with influenza-like illness", "result": "3.1%"}
{"Compound": "CC[C@H](C)[C@H](NC(=O)[C@H](Cc1ccccc1)NC(=O)[C@H](CCC(=O)O)NC(=O)[C@H](CCCNC(=N)N)NC(=O)[C@H](C)NC(=O)[C@H](C)NC(=O)[C@H](CCC(N)=O)NC(=O)[C@H](CCC(=O)O)NC(=O)[C@H](CCC(=O)O)NC(=O)[C@H](CC(C)C)NC(=O)[C@H](Cc1ccc(O)cc1)NC(=O)[C@H](CO)NC(=O)[C@H](CO)NC(=O)[C@@H](NC(=O)[C@H](CC(=O)O)NC(=O)[C@H](CO)NC(=O)[C@@H](NC(=O)[C@H](Cc1ccccc1)NC(=O)[C@@H](NC(=O)CNC(=O)[C@H](CCC(=O)O)NC(=O)[C@H](C)NC(=O)CCc1c[nH]cn1)[C@@H](C)O)[C@@H](C)O)C(C)C)C(=O)N[C@@H](C)C(=O)N[C@@H](Cc1c[nH]c2ccccc12)C(=O)N[C@@H](CC(C)C)C(=O)N[C@H](C(=O)N[C@@H](CCCNC(=N)N)C(=O)NCC(=O)N[C@@H](CCCNC(=N)N)C(=O)N[C@@H](CCCCNC(=O)COCCOCCNC(=O)COCCOCCNC(=O)CC[C@H](NC(=O)CCCCCCCCCCCCCCCCC(=O)O)C(=O)O)C(=O)NCC(=O)NCC(=O)N[C@@H](CO)C(=O)N[C@@H](CCCCNc1c(NCCCCCN(O)C(=O)CCC(=O)NCCCCCN(O)C(=O)CCC(=O)NCCCCCN(O)C(C)=O)c(=O)c1=O)C(=O)O)C(C)C [zirconium-89 labelled]", "test": "ex vivo gamma counting", "system": "rat, muscle", "setting": "subcutaneous, 3 nmol/kg, 168 h, with: [89Zr]-labelled peptide", "endpoint": "tissue uptake", "result": "0.04 %ID/g"}
{"Compound": "CN1CC[C@]23c4c5ccc(O)c4O[C@H]2[C@@H](O[C@@H]2O[C@H](C(=O)O)[C@@H](O)[C@H](O)[C@H]2O)C=C[C@H]3[C@H]1C5", "system": "rat, whole blood", "setting": "10 nM, 4 freeze-thaw cycles", "endpoint": "stability bias", "result": "9.83%"}
{"Compound": "Cc1ncc2n1-c1ccc(Cl)cc1C(c1ccccc1F)=NC2", "system": "healthy volunteers, plasma", "setting": "oral, 5 mg single dose, day 1, given alone", "endpoint": "AUC(0-last)", "result": "95.9 ng·h/mL"}
{"Compound": "COC(=O)[C@H]1[C@@H](OC(=O)c2ccccc2)C[C@@H]2CC[C@H]1N2C", "system": "rat, whole blood", "setting": "10 nM, 4 freeze-thaw cycles", "endpoint": "stability bias", "result": "-3.83%"}
{"Compound": "O=c1ccn([C@@H]2O[C@](F)(CO)[C@@H](O)[C@H]2O)c(=O)[nH]1", "system": "guinea pig", "setting": "oral", "endpoint": "oral bioavailability", "result": "24 to 87%"}
{"Compound": "COC(=O)[C@@H]1[C@H]2CC[C@@H](C[C@@H]1O)N2C", "system": "rat, whole blood", "setting": "10 nM, 4 freeze-thaw cycles", "endpoint": "stability bias", "result": "0.67%"}
{"Compound": "O=C(c1ccc(Cl)cc1)N1CCN2C(=O)N(OC(=O)N3CCOc4ccccc43)C(=O)C2C1 (stereo not shown)", "target or system": "Probable serine carboxypeptidase CPVL (CPVL, Homo sapiens, UniProt Q9H3G5)", "test": "MS-based ABPP", "system": "SW-620 conditioned medium", "setting": "10 µM, 1 h, 37 °C", "scale": "baseline: compound over DMSO, lower = more inhibition", "endpoint": "peptide ratio", "result": "1.02 and 1.11 and 1.13"}
{"Compound": "CC(=O)Oc1ccc2c3c1O[C@H]1[C@@H](OC(C)=O)C=C[C@H]4[C@@H](C2)N(C)CC[C@@]341", "system": "rat, whole blood", "setting": "500 nM, 4 months, -80 °C, long-term storage", "endpoint": "stability bias", "result": "-5.6%"}
{"Compound": "COc1ccc2c(c1)[C@]13CCCC[C@@H]1[C@H](C2)N(C)CC3", "system": "fresh human whole blood", "setting": "1 µM, pH 7.4", "endpoint": "blood-to-plasma ratio", "result": 1.3}
{"Compound": "CN1CC[C@]23c4c5ccc(O)c4O[C@H]2[C@@H](O)CC[C@H]3[C@H]1C5", "test": "PAMPA-BBB", "system": "porcine brain lipid", "setting": "500 µM, 4 h, pH 7.4, 1% DMSO", "endpoint": "Papp", "result": "3.4 ×10⁻⁶ cm/s"}
{"Compound": "O=C1c2c(O)c(=O)ccn2N([C@@H]2c3ccccc3SCc3c2ccc(F)c3F)[C@@H]2COCCN12", "system": "BALB/c mice, plasma", "setting": "oral, 50 mg/kg baloxavir marboxil, 1 h", "endpoint": "plasma concentration", "result": "249 ng/mL"}
{"Compound": "C[C@H]1CN(c2n[nH]c3nc(N[C@H]4CC[C@H](NS(=O)(=O)CCC(F)(F)F)CC4)ncc23)CCO1", "target or system": "Echinoderm microtubule-associated protein-like 4 (Homo sapiens, UniProt Q9HC35)", "test": "Kinobeads competition, refers to: EML4", "setting": "0.16 µM, unit not given", "scale": "baseline: vehicle", "endpoint": "remaining binding", "result": 1.07}
{"Compound": "C[C@@H](O)[C@@H](CO)NC(=O)[C@@H](CCCNC(=N)N)NC(=O)[C@@H]1CCCN1C(=O)[C@@H]1CSSC[C@H](NC(=O)[C@H](Cc2ccccc2)NC(=O)CN2CCN(CC(=O)O)CCN(CC(=O)O)CCN(CC(=O)O)CC2)C(=O)N[C@@H](Cc2ccc(O)cc2)C(=O)N[C@@H](Cc2ccccc2)C(=O)N[C@@H](CCC(N)=O)C(=O)N[C@@H](CC(N)=O)C(=O)N1 [gallium-68 labelled]", "system": "Wistar rat, healthy, Parotid gland", "setting": "intravenous, 8 MBq, 30 min", "endpoint": "tissue uptake", "result": "0.22 %ID/g"}
{"Compound": "Cc1ncc2n1-c1ccc(Cl)cc1C(c1ccccc1F)=NC2", "system": "wild-type mice, plasma", "setting": "intravenous, 0.3 mg/kg, with: 3-day vehicle", "endpoint": "clearance", "result": "393 ± 18 mL/min"}
{"note": "Excerpt of the above:"}
{"Compound": "COc1ccc2c3c1O[C@H]1[C@@H](O)C=C[C@H]4[C@@H](C2)N(C)CC[C@@]341", "test": "PAMPA-BBB", "system": "porcine brain lipid", "setting": "500 µM, 4 h, pH 7.4, 1% DMSO", "endpoint": "Papp", "result": "15.2 ×10⁻⁶ cm/s"}
{"Compound": "C[C@H]1CN(C(=O)CC#N)[C@]12CCN(c1ncnc3[nH]ccc13)C2", "system": "human", "setting": "oral, dose not given, all compound groups", "endpoint": "participants with influenza-like illness", "result": "3.1%"}
